Experimental data pooled from the literature.
A part holds a random share of what one study measured. Substitutions count along the parent as printed.

Block 1 — technique: RNA Bind-n-Seq; molecule type: RNA; sample: in vitro; concentration: 365 nM; baseline: no-protein control; direction: higher = stronger binding
Target: RNA binding protein fox-1 homolog 2, RRM domain, GST-SBP tag (RBFOX2, Homo sapiens, UniProt O43251-10, residues 100-194)
Setting: natural RNA segment, single round, ends assumed
Shared flanks, not repeated: GGGAGUUCUACAGUCCGACGAUC … UGGAAUUCUCGGGUGCCAA
Construct (chain): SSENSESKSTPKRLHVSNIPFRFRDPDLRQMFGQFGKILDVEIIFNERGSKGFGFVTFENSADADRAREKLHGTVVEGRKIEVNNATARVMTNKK
Sequence	RBNS enrichment (R)
GGUCUUCUGUGCAACUUAGAUAUAAUAUUGUAAAAUGCUUUUCAAGUGUGGGUUUUGCCCUGAUUGUUGCAAAUACAAUUUCCACCUUCUGGAAAGGUAGGUUUGCUGUG	0.714
CAACAUGAUAAUUUAUGUAACUGAUAGCUUCUGUCCUUAUUAGUACACUUAACAUUUGAGACUAGUAUUUAUUGAUCCAGGCAAAGUAAUUAAUUAAUCAUGCUUGGGCU	0.451
AAUAUGAAUCUCAUUGAAAUAAAAAAUGCCUUAAAGAAGCAGAUAUACAAGGACAUAUAUAGAGCUCGGUAAAGGUUAUCACAUUAAUACUCUUUCUUUACAUUAAGAUU	0.778
UGCAUGUUUGGCAGUUCCAUGUUACAGUCCAUUAGCGAGUGAACUUAGUGCCACAGGUAUUCAUUUAUUCAGGAAAGAAUUUUGCUUUUUGUAUUGUCUAAUCUCUUCAA	3.34
AUUUCAAGAGAAUAUGUUGGCCUAAUUGUUGGGUUGGCUGGGACCUGCUCUGAAGGGAUCCCUCAGUUCACCGAUUGGCAAGCCAAGGUCAGUCCUUGCUGUUGAUGGAG	0.238
CUCAAUAGUACAUGAGAACGUAUUGGCUUACCUUAUACAAUAAAUUAGUCCUUUUGUUUACUCAGUUUGGAGAGUAAUGUUUCUUCCACAGACAGUUUCAUUGAGUGUUA	0.52
CCACCAAAUUCUGAAUUUGUAGACAUACUUGUACGCUCACUUGCCCCAGAUGCCUCCUCUGUCCUCAUUCUUCUCUCCCACACAAGCAGUCUUUUUCUACAGCCAGUAAG	1.42
UAUAGCAAUUCUGACAAUAGGUUUGUUUGUUUGUUUGUUUGUUUUUACAAACUCAAGAAAAACAGACUCACUUGAAAAAAUGGAUGCCAGUCACCUGGUUCCCACUACUG	0.349
UGAUUCAGUUCAAAAUUAAUGCAAAUCUUUCAAAACUGGGUUUCUGAUACUUGUGGAUGUUUUUCUUCAUUAGAUAAGAAUGUAUUACCAUUAAAUCCAUUAGUAUUACA	0.732
AAAACAAACCCCGCUCAGAAACAAGAGAAAAUUGGGGCCGCGAAGAACUCACAGCCACGGAAGAGUUGUUGCAUUCAGAUUCUUGAGAAACAUUUGUUGCUCGGCAACAG	1.2
UUGUAUUUGUUGUGUUUAAGAACCAUUAAUGUAUUAUGUAAAAUUAAAUUUUAAAUGGAAUAUUUUAAACUGAUACAGUGGUGUAUGUGUGUGUAUAUGUAAUUUUCUUA	1.99

Block 2 — technique: protein-binding microarray; molecule type: double-stranded DNA, one strand shown; sample: in vitro; concentration: 2200 nM top; setting: 60-bp whole probe; added: salmon DNA 0.4 mg/ml; baseline: random background probes; direction: higher = stronger binding; shared flanks, not repeated: GCCTAGCAC … GTCTTGATTCGCTTGACGCTGCTG
Target: Interferon regulatory factor 7, full length, phosphomimetic (IRF7, Homo sapiens, UniProt Q92985, residues 1-503, S471D/S472D/S475D/S476D/S477D/S483D/S484D/S487D)
Target sequence (chain): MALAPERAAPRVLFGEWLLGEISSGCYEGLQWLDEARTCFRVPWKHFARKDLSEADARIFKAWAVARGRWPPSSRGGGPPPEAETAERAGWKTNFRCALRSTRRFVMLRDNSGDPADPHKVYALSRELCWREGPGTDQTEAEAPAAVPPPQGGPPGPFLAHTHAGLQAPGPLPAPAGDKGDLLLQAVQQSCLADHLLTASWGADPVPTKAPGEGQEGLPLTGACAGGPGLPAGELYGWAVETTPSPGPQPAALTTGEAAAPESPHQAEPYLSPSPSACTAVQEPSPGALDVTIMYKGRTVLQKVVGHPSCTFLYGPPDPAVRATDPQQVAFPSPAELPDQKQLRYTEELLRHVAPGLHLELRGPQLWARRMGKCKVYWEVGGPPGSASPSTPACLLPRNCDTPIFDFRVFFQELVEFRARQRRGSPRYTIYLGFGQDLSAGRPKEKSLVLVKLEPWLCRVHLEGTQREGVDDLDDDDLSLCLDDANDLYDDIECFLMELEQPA
Sequence	fitted relative affinity [z-score]
GACGGGATCGGGACTGGGGACGTGCTA	-0.856
TCCTATATCTGAACCGCAGAGTGCTAG	0.965
TTAGGTTTCGGGAATGGGTTAGTGCTA	2.2
TTAGATTTCAGCATCGATTAGTGCTAG	0.238
TTAGATGTCAGTATCGATTAGTGCTAG	0.541
TTAAGTTTCGGGTTTCGGTTAGTGCTA	12.4
CAAGTTACGGAATTTCCCTCTGTGCTA	1.22
TTAGGACTGGGGACTGTGTTAGTGCTA	-0.576
GCGATTTGAGGAGCTCGCTCGTGCTAG	1.53
GACGGTATCGGTATCGGGAAGTGCTAG	0.309
GACGGTATCGGGATCGGGACGTGCTAG	-0.254
TTAGGTATCGGGGTTCGGTTAGTGCTA	0.524

Block 3 — target: CCNE1, cyclin fold, Cln2 fusion (human); technique: yeast growth competition, sequencing; sample: yeast; setting: strong parent motif; baseline: not given; direction: higher = stronger binding
Parent: CDC25A docking peptide (human); PPHRRRLLFACSP
Variant	normalised enrichment score
PPHRRRLLFACIP [S12I]	1.97
PPHRRRLLFACSH [P13H]	1.14
PPHRRRLLFAESP [C11E]	2.58
PPLRRRLLFACSP [H3L]	1.07
PPHRRQLLFACSP [R6Q]	1.21
VPHRRRLLFACSP [P1V]	0.848
PPHRRRLVFACSP [L8V]	2.46
PPCRRRLLFACSP [H3C]	3.8
PPHRRRLAFACSP [L8A]	1.29
PPHRRRLLFACDP [S12D]	1.67
PPHRRKLLFACSP [R6K]	1.6
PPHRRRLFFACSP [L8F]	2.4
PPHRRRLKFACSP [L8K]	1.27

Mixed results
Substance	target	test	system	conditions	how to read	measurement	result
PhoQ, residues 284 288 289 292 302 303 AANNSF	PhoP, residues 12 14 15 18 19 SEGLL (Escherichia coli, UniProt P23836)	Sort-seq, refers to: YFP reporter	E. coli	PhoQ-PhoP variant library, added: 10 µM Mg2+	baseline: high Mg2+ state, higher = stronger signaling	fold induction	16.6

Repeated from above (block 1):
Sequence	RBNS enrichment (R)
CUCAAUAGUACAUGAGAACGUAUUGGCUUACCUUAUACAAUAAAUUAGUCCUUUUGUUUACUCAGUUUGGAGAGUAAUGUUUCUUCCACAGACAGUUUCAUUGAGUGUUA	0.52
CCACCAAAUUCUGAAUUUGUAGACAUACUUGUACGCUCACUUGCCCCAGAUGCCUCCUCUGUCCUCAUUCUUCUCUCCCACACAAGCAGUCUUUUUCUACAGCCAGUAAG	1.42
